Measured values gathered from unrelated publications.
Each numbered part is a random draw from the data of one study; scales do not carry over between parts.

Block 1
Target: RNA binding protein fox-1 homolog 2, RRM domain, GST-SBP tag (RBFOX2, Homo sapiens, UniProt O43251-10, residues 100-194)
Method: RNA Bind-n-Seq
Molecule type: RNA
Medium: in vitro
Concentration: 365 nM
Notes: natural RNA segment, single round, ends assumed
Relative to: no-protein control
Direction: higher = stronger binding
Constant ends, left off below: GGGAGUUCUACAGUCCGACGAUC … UGGAAUUCUCGGGUGCCAA
Residues (chain): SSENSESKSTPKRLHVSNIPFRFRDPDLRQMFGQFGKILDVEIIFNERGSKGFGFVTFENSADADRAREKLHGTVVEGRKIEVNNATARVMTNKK
Sequence	RBNS enrichment (R)
UGUGGGUGGACUCUAAGUUGGCAAACCAAGGAUUUAGGGAGUGGCCUAGUCAACAUAAUUCUUUAAGAAAGGAAGGAGAAAAGCUGUGUCCAUAGUGACUGUUUGAAGCU	0.911
GAACCAGCGCCCCAUAGGCUAAGAUCUAUCAUUUACAGGUAGAAGUGGGGCCCGCACUCAGAACUGUGAGGAGGGUGGAGAGUGGUCCUGACCCUCAGUUCCCAGAGGAC	0.716
GAGUCCUGGAGUUAACCAUGAAGAAAACUCUGACUUAGCACUCAGAGGCAUACACUUUUUACAGAUGGACAAAAGCUCUGGAACCCUGUGGCUUCAAAUCCUUUGGGAAG	0.237
AGAAAGAUCUUUUUUUAUUUUUUUCAUAUUUGGCAAUGAUGUCAGCUCCAUUUUAAAAAUCUCCAAUAACCAGGUAAGAAAAGAAAGAAAAAAAUUAAGAAACAACAGGC	0.759
CUGGUGCAGGUCUCCACCUGCACAUUGGGUGGGGCUCCUGGGAGGGAGACUCAGCCUUCCUCCUCAUCCUCCCUGACCCUGCUCCUAGCACCCUGGAGAGUGCACAUGCC	2.87
UUUUUGUUGUUGUCUUGGCAGUUUUACUGAACCCUUUGCAUAAAGAACAAAAUAAAAGCUCGGCAUUGUAAUUUUUUUAAUGGACAAGUCUUAUGGAUACGAAGGGUACA	1.27
AGUUGAAUGCAGAUUUUUAUCCAUAGAUAACUGUAGUGUUUUGAAAUGAUAGGCCCUACCUUUGAAGUUUCUAAGACUUAUUAUGGGAUGUAAAUCUGUUUUUUAAAAAC	0.42
CAGUGUACCAGAACCUGAGGAUGCUCGCUGCAAGGCCUCAGUUCUCAGGCCUUAGGGUGUAUUUGUCUUUCAGGAAGAUCAUAAUGGACAGAGAUCCUUGGAGGUUCAAA	0.506

Block 2
Target: Interferon regulatory factor 7, full length, phosphomimetic (IRF7, Homo sapiens, UniProt Q92985, residues 1-503, S101K/S471D/S472D/S475D/S476D/S477D/S483D/S484D/S487D)
Method: protein-binding microarray
Molecule type: double-stranded DNA, one strand shown
Medium: in vitro
Concentration: 250 nM
Notes: 60-bp whole probe
Together with: salmon DNA 0.4 mg/ml
Relative to: random background probes
Direction: higher = stronger binding
Constant ends, left off below: GCCTAGCAC … GTCTTGATTCGCTTGACGCTGCTG
Residues (chain): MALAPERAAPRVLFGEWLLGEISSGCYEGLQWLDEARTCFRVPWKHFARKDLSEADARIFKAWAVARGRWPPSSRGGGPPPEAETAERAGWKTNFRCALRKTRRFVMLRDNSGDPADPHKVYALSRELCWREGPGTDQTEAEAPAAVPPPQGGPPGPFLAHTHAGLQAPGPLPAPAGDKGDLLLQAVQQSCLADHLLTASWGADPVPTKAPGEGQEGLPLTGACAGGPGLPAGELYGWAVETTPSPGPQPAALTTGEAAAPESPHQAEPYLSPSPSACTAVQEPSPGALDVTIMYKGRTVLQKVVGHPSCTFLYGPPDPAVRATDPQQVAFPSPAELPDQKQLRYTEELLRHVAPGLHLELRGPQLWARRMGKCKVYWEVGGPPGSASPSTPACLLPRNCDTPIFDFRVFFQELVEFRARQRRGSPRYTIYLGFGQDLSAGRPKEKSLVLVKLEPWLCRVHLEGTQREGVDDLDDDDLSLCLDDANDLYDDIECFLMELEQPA
Sequence	log fluorescence
GACGGGCTGGGGACTGGGGACGTGCTA	-0.848 z-score
GACGGTATCCTTCTCCTGTCGTGCTAG	0.538 z-score
TTAGGTTTCGGGACTGGGTTAGTGCTA	3.78 z-score
GACGATCTCAGTCTCGAGAGGTGCTAG	-0.169 z-score
GACGGTATCGGACTGGGGACGTGCTAG	0.0247 z-score
GACGAACTGGGGTTACGAGACGTGCTA	-0.521 z-score
TCTCCTTTCGGAATACCCTCGTGCTAG	2.7 z-score
AAAACTAGGGCATTTAGAAAAGTGCTA	-0.129 z-score
TGGGATTTTGTCCTCCCCTCGTGCTAG	-0.119 z-score
GACGATCTCAGACTGGAAACGTGCTAG	-0.0447 z-score
GTGACTCAGCACTTTGGCATGGTGCTA	-0.196 z-score
CCAGAGTCCTGTTTGATAATGTGCTAG	0.616 z-score
TCAGGTATCGACACTGGGTTAGTGCTA	-0.116 z-score
TTCAGTCCCCTCTTCTGGATGTGCTAG	0.516 z-score
TCATGCTTTCATTTATTACTGTGCTAG	0.445 z-score
TAGGGACTCAGGTCTCCCTTGGTGCTA	-0.132 z-score
GACCGTATCGGACTGGGGACGTGCTAG	0.37 z-score
GATGGTATCGGTTTCGGGACGTGCTAG	7.54 z-score
GATGGAAACTTAAACTAGAAAGTGCTA	0.0723 z-score

Block 3
Target: Hepatocyte nuclear factor 3-beta, forkhead domain (FOXA2, Homo sapiens, UniProt Q9Y261, residues 142-269)
Method: protein-binding microarray
Molecule type: hairpin DNA
Medium: in vitro
Concentration: not given
Notes: whole hairpin DNA, median over replicate spots
Relative to: not given
Direction: higher = stronger binding
Residues (chain): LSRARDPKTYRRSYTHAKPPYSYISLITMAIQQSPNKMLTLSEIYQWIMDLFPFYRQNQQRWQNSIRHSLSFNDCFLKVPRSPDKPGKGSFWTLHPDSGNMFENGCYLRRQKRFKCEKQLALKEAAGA
Sequence	median fluorescence
GAGGCCGTGTAAACAACGCCTCCTGGCGTTGTTTACACGGCCTCACACTC	5140 a.u.
GAGGCCATCTAACCAACGCCTCCTGGCGTTGGTTAGATGGCCTCACACTC	3010 a.u.
GAGGCCATGTTAACAACGCCTCCTGGCGTTGTTAACATGGCCTCACACTC	3050 a.u.
GAGGCCTTGTAAACAACGCCTCCTGGCGTTGTTTACAAGGCCTCACACTC	3430 a.u.
GAGGCCATGTAAACAAAGCCTCCTGGCTTTGTTTACATGGCCTCACACTC	5460 a.u.
GAGGCCATGTCAACAACGCCTCCTGGCGTTGTTGACATGGCCTCACACTC (5mC at 11)	3410 a.u.
GAGGCCATGCCGACAACGCCTCCTGGCGTTGTCGGCATGGCCTCACACTC (5mC at 33)	3330 a.u.
GAGGCCATGTATCCAACGCCTCCTGGCGTTGGATACATGGCCTCACACTC	3150 a.u.
GAGGCCATGTAACCACGGCCTCCTGGCCGTGGTTACATGGCCTCACACTC (5mC at 28)	3230 a.u.
GAGGCCATGTAAACACGGCCTCCTGGCCGTGTTTACATGGCCTCACACTC (5mC at 16 28)	3540 a.u.
GAGGCCATGTAAACGACGCCTCCTGGCGTCGTTTACATGGCCTCACACTC	3320 a.u.
GAGGCCATGCAACCAACGCCTCCTGGCGTTGGTTGCATGGCCTCACACTC (5mC at 13)	3340 a.u.
GAGGCCATGCAGACAACGCCTCCTGGCGTTGTCTGCATGGCCTCACACTC	3420 a.u.
GAGGCCACGTAAACAACGCCTCCTGGCGTTGTTTACGTGGCCTCACACTC (5mC at 36)	3670 a.u.
GAGGCCATGTAACCCGCGCCTCCTGGCGCGGGTTACATGGCCTCACACTC	3400 a.u.
GAGGCCATGTCACCAACGCCTCCTGGCGTTGGTGACATGGCCTCACACTC	3180 a.u.
GAGGCCATGGAACCAACGCCTCCTGGCGTTGGTTCCATGGCCTCACACTC (5mC at 35)	3300 a.u.
GAGGCCATGTAACCAACGCCTCCTGGCGTTGGTTACATGGCCTCACACTC (5mC at 13)	3190 a.u.

Block 4
Target: Histone acetyltransferase KAT6A, winged helix 2, GST fusion (KAT6A, Homo sapiens, UniProt Q92794, residues 85-181)
Method: protein binding microarray
Molecule type: double-stranded DNA, one strand shown
Medium: in vitro
Concentration: not given
Notes: 8-mer, flanks averaged, mean of 2 arrays, mostly near background
Relative to: not given
Direction: higher = stronger binding
Target sequence (chain): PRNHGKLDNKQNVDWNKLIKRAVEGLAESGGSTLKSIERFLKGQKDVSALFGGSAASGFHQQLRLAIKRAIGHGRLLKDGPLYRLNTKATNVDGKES
Sequence	E-score
GTCGTAAC	0.0438
GACTTCGA	-0.128
GAGTATCC	0.0564
GCCCTAAC	0.00967
ACCGAAAA	0.0219
ATAGTTCA	0.0155
GGCACGAC	-0.1
CTCTTCTA	-0.153
ATAGGAAT	-0.0106
CTTTTCCA	-0.0993
ATGAGCGG	-0.0808
ATCTTTTG	-0.0981
AACGCCAG	0.222
ATCCTGTA	0.00498
ATAATTAT	0.214
GCATACAA	0.0731
ACCGCGGA	0.178

Block 5
Target: Eukaryotic initiation factor 4A-I (EIF4A1, Homo sapiens, UniProt P60842, residues 1-406, full length assumed)
UniProt P60842, sequence (whole entry, looked up): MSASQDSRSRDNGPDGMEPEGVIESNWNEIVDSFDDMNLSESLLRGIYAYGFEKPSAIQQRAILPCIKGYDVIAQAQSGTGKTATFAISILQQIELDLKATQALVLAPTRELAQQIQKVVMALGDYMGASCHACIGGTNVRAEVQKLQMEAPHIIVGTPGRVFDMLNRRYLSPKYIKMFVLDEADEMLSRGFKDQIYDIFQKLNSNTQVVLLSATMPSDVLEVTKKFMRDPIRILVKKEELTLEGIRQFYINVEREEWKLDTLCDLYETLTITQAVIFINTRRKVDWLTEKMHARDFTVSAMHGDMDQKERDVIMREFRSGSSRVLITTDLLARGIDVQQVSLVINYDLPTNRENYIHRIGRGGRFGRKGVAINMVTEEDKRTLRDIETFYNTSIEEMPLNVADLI
Method: RNA Bind-n-Seq
Molecule type: RNA
Medium: in vitro
Concentration: not given
Notes: 4-mer, random 30-nt RNA, single round
Together with: RocA, ADP, phosphate
Relative to: input library
Direction: higher = stronger binding
Sequence	4-mer enrichment [fold]
UGCC	0.612
CUGU	0.684
GAAG	1.6
UCCU	0.536
UCUA	0.621
UGGG	1.24
UAUG	1.04
CUCA	0.491
UCGU	0.687
AGGG	1.43
GCGC	0.74
CGUA	0.772
GUUG	1.22
CAGU	0.777
UCCG	0.618
CCCU	0.597
GACG	0.86
GGCU	0.683
CGGU	0.758
GGUU	0.99
GCCG	0.717
ACGG	0.876
CACU	0.582
GCAU	0.842
CCUU	0.573

A few entries again (block 3):
Sequence	median fluorescence
GAGGCCATGTCAACAACGCCTCCTGGCGTTGTTGACATGGCCTCACACTC (5mC at 11)	3410 a.u.
GAGGCCATGCCGACAACGCCTCCTGGCGTTGTCGGCATGGCCTCACACTC (5mC at 33)	3330 a.u.
GAGGCCATGTATCCAACGCCTCCTGGCGTTGGATACATGGCCTCACACTC	3150 a.u.
GAGGCCATGTAACCACGGCCTCCTGGCCGTGGTTACATGGCCTCACACTC (5mC at 28)	3230 a.u.
GAGGCCATGTAAACACGGCCTCCTGGCCGTGTTTACATGGCCTCACACTC (5mC at 16 28)	3540 a.u.
GAGGCCATGTAAACGACGCCTCCTGGCGTCGTTTACATGGCCTCACACTC	3320 a.u.
GAGGCCATGCAACCAACGCCTCCTGGCGTTGGTTGCATGGCCTCACACTC (5mC at 13)	3340 a.u.
GAGGCCATGCAGACAACGCCTCCTGGCGTTGTCTGCATGGCCTCACACTC	3420 a.u.
GAGGCCACGTAAACAACGCCTCCTGGCGTTGTTTACGTGGCCTCACACTC (5mC at 36)	3670 a.u.
